Measured values pooled from the literature.
Each line is one published result; not all experiments were run side by side.
WNK2: Serine/threonine-protein kinase WNK2 (WNK2, Homo sapiens, UniProt Q9Y3S1)
Chain of UniProt Q9Y3S1 (whole entry, looked up): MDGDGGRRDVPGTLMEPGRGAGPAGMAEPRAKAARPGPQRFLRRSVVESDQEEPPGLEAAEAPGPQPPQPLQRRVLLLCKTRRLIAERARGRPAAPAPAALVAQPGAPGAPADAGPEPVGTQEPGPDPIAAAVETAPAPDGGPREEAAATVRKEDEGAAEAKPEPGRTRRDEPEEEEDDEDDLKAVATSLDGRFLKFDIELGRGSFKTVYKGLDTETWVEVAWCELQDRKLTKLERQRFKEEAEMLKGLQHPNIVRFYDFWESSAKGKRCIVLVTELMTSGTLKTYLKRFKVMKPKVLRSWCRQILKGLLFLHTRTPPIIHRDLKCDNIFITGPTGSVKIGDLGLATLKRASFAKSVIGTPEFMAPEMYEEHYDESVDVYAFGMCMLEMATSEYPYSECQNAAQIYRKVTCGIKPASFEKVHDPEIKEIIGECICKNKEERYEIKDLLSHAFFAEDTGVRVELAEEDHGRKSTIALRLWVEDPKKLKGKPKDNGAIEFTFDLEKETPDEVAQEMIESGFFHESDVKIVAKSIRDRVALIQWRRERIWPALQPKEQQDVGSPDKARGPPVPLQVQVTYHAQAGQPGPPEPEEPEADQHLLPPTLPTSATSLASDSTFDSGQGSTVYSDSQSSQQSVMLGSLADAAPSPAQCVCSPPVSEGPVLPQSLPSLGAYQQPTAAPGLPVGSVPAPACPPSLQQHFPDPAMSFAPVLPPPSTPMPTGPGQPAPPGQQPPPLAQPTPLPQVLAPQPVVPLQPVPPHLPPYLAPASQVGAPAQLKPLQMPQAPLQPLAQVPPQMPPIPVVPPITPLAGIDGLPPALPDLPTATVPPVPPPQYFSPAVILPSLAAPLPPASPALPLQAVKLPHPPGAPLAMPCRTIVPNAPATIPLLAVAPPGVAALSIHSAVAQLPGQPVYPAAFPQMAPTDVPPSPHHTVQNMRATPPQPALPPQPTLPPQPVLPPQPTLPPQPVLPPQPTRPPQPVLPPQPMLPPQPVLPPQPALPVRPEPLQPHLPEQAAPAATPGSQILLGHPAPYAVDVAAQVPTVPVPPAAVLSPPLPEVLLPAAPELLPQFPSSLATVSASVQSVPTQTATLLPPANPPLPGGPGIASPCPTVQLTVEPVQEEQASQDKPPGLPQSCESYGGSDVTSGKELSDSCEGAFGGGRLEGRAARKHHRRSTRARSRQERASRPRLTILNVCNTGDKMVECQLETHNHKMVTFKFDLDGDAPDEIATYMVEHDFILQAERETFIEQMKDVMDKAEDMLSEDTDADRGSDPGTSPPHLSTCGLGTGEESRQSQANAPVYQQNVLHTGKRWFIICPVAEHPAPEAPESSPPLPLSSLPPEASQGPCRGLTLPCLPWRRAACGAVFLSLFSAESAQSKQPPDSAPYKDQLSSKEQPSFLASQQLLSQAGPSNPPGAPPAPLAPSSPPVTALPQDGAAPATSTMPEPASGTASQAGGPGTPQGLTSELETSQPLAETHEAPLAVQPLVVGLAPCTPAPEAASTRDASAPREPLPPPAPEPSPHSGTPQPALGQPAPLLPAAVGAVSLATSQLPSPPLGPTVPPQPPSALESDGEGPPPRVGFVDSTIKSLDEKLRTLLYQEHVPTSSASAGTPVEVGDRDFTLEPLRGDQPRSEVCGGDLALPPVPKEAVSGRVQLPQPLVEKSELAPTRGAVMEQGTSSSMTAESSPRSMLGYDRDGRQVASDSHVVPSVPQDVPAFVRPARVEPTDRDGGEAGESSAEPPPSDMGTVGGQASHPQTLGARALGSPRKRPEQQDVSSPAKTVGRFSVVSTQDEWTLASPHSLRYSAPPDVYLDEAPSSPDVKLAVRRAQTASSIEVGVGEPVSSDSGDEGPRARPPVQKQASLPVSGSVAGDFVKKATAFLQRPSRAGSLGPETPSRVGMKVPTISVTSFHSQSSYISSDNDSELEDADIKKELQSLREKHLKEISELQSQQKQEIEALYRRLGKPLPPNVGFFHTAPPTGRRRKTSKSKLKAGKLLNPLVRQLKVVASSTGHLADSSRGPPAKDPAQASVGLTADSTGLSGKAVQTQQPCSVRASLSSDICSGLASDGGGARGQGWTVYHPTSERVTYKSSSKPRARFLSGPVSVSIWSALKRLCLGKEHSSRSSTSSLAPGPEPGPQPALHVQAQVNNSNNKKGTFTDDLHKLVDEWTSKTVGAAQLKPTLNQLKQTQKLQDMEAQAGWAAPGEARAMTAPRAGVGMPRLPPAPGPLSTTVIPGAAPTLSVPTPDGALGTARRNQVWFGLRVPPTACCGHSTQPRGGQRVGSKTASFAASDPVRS
Chain of UniProt Q9H1R3 (whole entry, looked up): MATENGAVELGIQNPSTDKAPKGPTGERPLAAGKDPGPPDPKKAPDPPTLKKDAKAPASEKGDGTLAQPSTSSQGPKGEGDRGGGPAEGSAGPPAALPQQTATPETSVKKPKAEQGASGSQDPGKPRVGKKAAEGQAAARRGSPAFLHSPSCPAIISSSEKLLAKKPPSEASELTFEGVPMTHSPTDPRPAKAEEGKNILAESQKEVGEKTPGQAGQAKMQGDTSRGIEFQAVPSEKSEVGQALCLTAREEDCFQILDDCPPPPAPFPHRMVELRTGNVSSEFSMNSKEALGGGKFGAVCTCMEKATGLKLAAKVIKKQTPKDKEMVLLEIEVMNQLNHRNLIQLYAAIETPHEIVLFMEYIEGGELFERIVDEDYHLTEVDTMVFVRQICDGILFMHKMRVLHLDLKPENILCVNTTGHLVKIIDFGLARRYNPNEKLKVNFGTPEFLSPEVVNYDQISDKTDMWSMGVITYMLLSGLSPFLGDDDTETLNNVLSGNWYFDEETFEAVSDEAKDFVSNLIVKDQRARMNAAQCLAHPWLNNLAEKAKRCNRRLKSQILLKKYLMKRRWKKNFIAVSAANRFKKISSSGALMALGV
Chain of UniProt Q9P289 (whole entry, looked up): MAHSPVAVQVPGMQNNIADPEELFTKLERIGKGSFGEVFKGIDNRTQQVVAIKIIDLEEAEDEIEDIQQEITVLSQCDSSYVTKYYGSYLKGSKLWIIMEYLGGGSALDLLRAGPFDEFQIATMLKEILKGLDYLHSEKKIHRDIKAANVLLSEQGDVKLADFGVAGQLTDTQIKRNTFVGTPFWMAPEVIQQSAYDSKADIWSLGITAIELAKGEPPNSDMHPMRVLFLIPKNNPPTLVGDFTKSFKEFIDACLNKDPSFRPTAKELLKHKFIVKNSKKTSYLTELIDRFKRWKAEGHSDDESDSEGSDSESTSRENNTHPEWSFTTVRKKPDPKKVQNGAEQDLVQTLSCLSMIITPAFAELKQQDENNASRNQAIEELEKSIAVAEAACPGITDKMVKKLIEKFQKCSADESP

SMILES | target or system | test | system | setting | endpoint | value
CC(=NNC(=S)Nc1ccccc1)c1ccc(Nc2nnc(-c3ccc(Cl)cc3)c3ccccc23)cc1 | HepG2 | cell growth or viability, MTT |  | 1.25 µM, 24 h | viability | 50%
C=CCNC(=S)NNC(=O)COc1ccc2c(C)c(CC)c(=O)oc2c1C | MDA-MB-231 | cell growth or viability, MTT |  | 62.5 µg/mL | viability | 89.2%
CC(=NNC(=O)c1ccccc1Cl)c1ccc(Nc2nnc(-c3ccc(Cl)cc3)c3ccccc23)cc1 | HepG2 | cell growth or viability, MTT |  | 0.312 µM, 24 h | viability | 80.2%
COc1ccc(NC(=O)Nc2cccc(-c3cn(Cc4ccc(C)cc4)nn3)c2)cc1 | Huh-7 | cell growth or viability, CCK-8 |  | 50 µM, 72 h | viability | 10.8%
COc1ccc(NC(=O)c2c(Nc3ccccc3)sc(C#N)c2NC(=O)CNc2ccc(O)cc2)cc1 | HCT-116 | cell growth or viability, SRB |  | 100 µM, 48 h | viability | 56.9%
CCc1c(C)c2ccc(OCC(=O)NNC(=S)Nc3ccccc3)c(C)c2oc1=O | MDA-MB-231 | cell growth or viability, MTT |  | 1000 µg/mL | viability | 2.85%
COc1ccc(NC(=O)Nc2ccc(-c3cn(Cc4ccc(Cl)cc4)nn3)cc2)cc1 | Huh-7 | cell growth or viability, CCK-8 |  | 50 µM, 48 h | viability | 84.6%
CC(C)(C)c1nc(-c2cccc(NS(=O)(=O)c3c(F)cccc3F)c2F)c(-c2ccnc(N)n2)s1 | SK-MEL-23 | cell growth or viability, MTT |  | 6.3 µM, 48 h | viability | 52.8%
Cc1cc([C@@H](C)Nc2ccccc2C(=O)O)c2nc(N3CCC(F)(F)CC3)c(C#N)c(=O)n2c1 | Dual specificity tyrosine-phosphorylation-regulated kinase 1B (DYRK1B, Homo sapiens, UniProt Q9Y463) | binding, competition with immobilised ligand |  | 1 µM | remaining binding | 100%
O=C(Nc1ccc(Cl)cc1)Nc1cccc(-c2cn(Cc3cccc(Br)c3)nn2)c1 | Huh-7 | cell growth or viability, CCK-8 |  | 50 µM, 48 h | viability | 96.1%
CCCOc1ccc2c(C)c(CC)c(=O)oc2c1C | MDA-MB-231 | cell growth or viability, MTT |  | 1000 µg/mL | viability | 2.9%
COc1ccc(NC(=O)c2c(Nc3ccccc3)sc(C#N)c2NC(=O)CNc2ccc(C)cc2)cc1 | HCT-116 | cell growth or viability, SRB |  | 1 nM, 48 h | viability | 100%
CC(=O)Nc1cccc(-n2c(=O)n(C3CC3)c(=O)c3c(Nc4ccc(I)cc4F)n(C)c(=O)c(C)c32)c1 | SW1417 | cell growth or viability, resazurin |  | 50 nM, 72 h | viability | 55.3%
Cc1c(Cc2ccccc2)c(=O)oc2c(C)c(OCC(=O)NN=Cc3ccccc3)ccc12 | MDA-MB-231 | cell growth or viability, MTT |  | 31.25 µg/mL | viability | 20.4%
CNC(=O)c1cc(Oc2ccc(NC(=O)Nc3ccc(Cl)c(C(F)(F)F)c3)cc2)ccn1 | HCT-116 | cell growth or viability, SRB |  | 10 nM, 48 h | viability | 85.7%
CCc1c(C)c2ccc(OCC(=O)NN=Cc3ccc([N+](=O)[O-])cc3)cc2oc1=O | MDA-MB-231 | cell growth or viability, MTT |  | 62.5 µg/mL | viability | 32.9%
C1=C/COCc2cc(ccc2OCCN2CCCC2)Nc2nccc(n2)-c2cccc(c2)COC/1 | Receptor-type tyrosine-protein kinase FLT3 (FLT3, Homo sapiens, UniProt P36888, D835V/ITD) | cell-free assay |  | 0.1 µM | remaining signal | 0.2%
Cc1ccc(C(CS(=O)(=O)c2ccccc2)=NNc2nc(-c3ccc(OCCCCOc4ccc(-c5csc(NN=C(CS(=O)(=O)c6ccccc6)c6ccc(C)cc6)n5)cc4)cc3)cs2)cc1 | SK-MEL-23 | cell growth or viability, MTT |  | 1.6 µM, 48 h | viability | 65.7%
Cc1c(Cc2ccccc2)c(=O)oc2c(C)c(OCC(=O)NN=Cc3ccco3)ccc12 | MDA-MB-231 | cell growth or viability, MTT |  | 1000 µg/mL | viability | 1.07%
COc1ccc(NC(=O)c2c(Nc3ccccc3)sc(C(=O)NN=Cc3ccc(OC)c(O)c3)c2NC(C)=O)cc1 | HCT-116 | cell growth or viability, SRB |  | 1 µM, 48 h | viability | 46.4%
Cc1ccc(C(CS(=O)(=O)c2ccccc2)=NNC2=NC(=O)C(=NNc3ccccc3)S2)cc1 | SK-MEL-23 | cell growth or viability, MTT |  | 25 µM, 48 h | viability | 28.6%
COc1cc(-c2cncc3c2CN(C)Cc2cc(N4CCNCC4)ccc2-3)cc(OC)c1OC | WNK2 | enzyme activity, inhibitor |  | 1 µM | remaining activity | 105%
C=CCOc1ccc2c(C)c(CC)c(=O)oc2c1C | MDA-MB-231 | cell growth or viability, MTT |  | 62.5 µg/mL | viability | 99.4%

SMILES | target or system | test | system | setting | endpoint | value
COc1ccc(NC(=O)NCc2cn(Cc3ccc(Cl)cc3)nn2)cc1 | Huh-7 | cell growth or viability, CCK-8 |  | 50 µM, 48 h | viability | 93.7%
CC(=NNC(N)=S)c1ccc(Nc2nnc(-c3ccc(Cl)cc3)c3ccccc23)cc1 | HepG2 | cell growth or viability, MTT |  | 5 µM, 24 h | viability | 7.36%
CCCN(O)N=Nc1ccc(S(=O)(=O)Nc2cc(C)on2)cc1 |  | DPPH scavenging, absorbance |  | 240 µg/mL | inhibition | 23.9%
C=CC(=O)N1CCC(COCC(=O)N2CCN(c3nc(-c4cnc(N)nc4C(F)F)nc(N4CCOC[C@@H]4C)n3)CC2)CC1 | Serine/threonine-protein kinase 26 (STK26, Homo sapiens, UniProt Q9P289) | binding, competition with immobilised ligand |  | 1 µM | remaining binding | 100%
CC(=O)Nc1ccc(Oc2nnc(-c3ccc(Cl)cc3)c3ccccc23)cc1 | HepG2 | cell growth or viability, MTT |  | 0.625 µM, 24 h | viability | 11.7%
CNC(=O)c1cc(Oc2ccc(NC(=O)Nc3ccc(Cl)c(C(F)(F)F)c3)cc2)ccn1 | MDA-MB-231 | cell growth or viability, MTT |  | 1.56 µM, 24 h | viability | 88.5%
Cc1cccc(N(O)N=Nc2ccc(S(=O)(=O)Nc3nccs3)cc2)c1 |  | DPPH scavenging, absorbance |  | 180 µg/mL | inhibition | 32.9%
CCCCC(=O)Nc1ccc(-c2ccc3ncn(CCC)c(=O)c3c2)cn1 | Myosin light chain kinase 2, skeletal/cardiac muscle (MYLK2, Homo sapiens, UniProt Q9H1R3) | binding, competition with immobilised ligand |  | 0.5 µM | remaining binding | 90%
Cc1ccc(C(CS(=O)(=O)c2ccccc2)=NNc2nc(C)c(N=Nc3cccc(C)c3)s2)cc1 | SK-MEL-23 | cell growth or viability, MTT |  | 100 µM, 48 h | viability | 37%
COc1ccc(NC(=O)c2c(Nc3ccccc3)sc(C(=O)NN=Cc3cc(OC)c(OC)c(OC)c3)c2NC(C)=O)cc1 | HCT-116 | cell growth or viability, SRB |  | 1 nM, 48 h | viability | 99%
O=C(Nc1ccc(Oc2nnc(-c3ccc(Cl)cc3)c3ccccc23)cc1)c1ccccc1 | MCF7 | cell growth or viability, MTT |  | 10 µM, 24 h | viability | 6.68%
COc1ccc(NC(=O)NCc2cn(Cc3ccc(C)cc3)nn2)cc1 | Huh-7 | cell growth or viability, CCK-8 |  | 50 µM, 72 h | viability | 91.2%
CNc1ncc2c(/C=C/C(=O)N3CCC(OC)CC3)nn(Cc3cccc(C(F)(F)F)c3)c2n1 | WNK2 | enzyme activity, inhibitor, radiometric |  | 1 µM | remaining activity | 100%
CC(=NNC(=O)c1ccc(N)cc1)c1ccc(Nc2nnc(-c3ccc(Cl)cc3)c3ccccc23)cc1 | HepG2 | cell growth or viability, MTT |  | 5 µM, 24 h | viability | 15.8%
COc1ccc(NC(=O)Nc2ccc(-c3cn(Cc4ccc(Br)cc4)nn3)cc2)cc1 | Huh-7 | cell growth or viability, CCK-8 |  | 50 µM, 48 h | viability | 85.1%
CC(=NNC(=O)c1ccccc1)c1ccc(Nc2nnc(-c3ccc(Cl)cc3)c3ccccc23)cc1 | HepG2 | cell growth or viability, MTT |  | 10 µM, 24 h | viability | 3.3%
COc1cccc(-c2n[nH]c(SCc3ccccn3)n2)c1OC |  |  | female Sprague-Dawley rat, plasma | oral, 10 mg/kg, 8 h, single dose | concentration | 14.5 ng/mL
NC(=S)NN=C(CS(=O)(=O)c1ccccc1)c1ccc(F)cc1 | SK-MEL-23 | cell growth or viability, MTT |  | 1.6 µM, 48 h | viability | 68.8%
COc1cccc2c1C(=O)c1c(O)c3c(c(O)c1C2=O)C[C@@](O)(C(=O)CO)C[C@@H]3O[C@H]1C[C@H](N)[C@H](O)[C@H](C)O1 | Caco-2 | cell growth or viability, MTT |  | 50 µg/mL, 48 h, serum-free | viability | 12.8%
COc1ccc(NC(=O)c2c(Nc3ccccc3)sc(C(=O)NN=Cc3ccc(Br)cc3)c2NC(C)=O)cc1 | HCT-116 | cell growth or viability, SRB |  | 0.1 µM, 48 h | viability | 85.1%
Cc1ccc(C(CS(=O)(=O)c2ccccc2)=NNC2=NC(=O)C(=NNc3ccc([N+](=O)[O-])cc3)S2)cc1 | SK-MEL-23 | cell growth or viability, MTT |  | 100 µM, 48 h | viability | 40.9%
COc1ccc(NC(=O)c2c(Nc3ccccc3)sc(C#N)c2NC(=O)CNc2ccccc2)cc1 | HCT-116 | cell growth or viability, SRB |  | 10 nM, 48 h | viability | 92.6%
Cc1c(Cc2ccccc2)c(=O)oc2c(C)c(OCC(=O)NN=Cc3ccc(Cl)cc3)ccc12 | MDA-MB-231 | cell growth or viability, MTT |  | 500 µg/mL | viability | 19.4%

For quick reference, copied from above:
SMILES | target or system | test | system | setting | endpoint | value
COc1cccc(-c2n[nH]c(SCc3ccccn3)n2)c1OC |  |  | female Sprague-Dawley rat, plasma | oral, 10 mg/kg, 8 h, single dose | concentration | 14.5 ng/mL
NC(=S)NN=C(CS(=O)(=O)c1ccccc1)c1ccc(F)cc1 | SK-MEL-23 | cell growth or viability, MTT |  | 1.6 µM, 48 h | viability | 68.8%
COc1cccc2c1C(=O)c1c(O)c3c(c(O)c1C2=O)C[C@@](O)(C(=O)CO)C[C@@H]3O[C@H]1C[C@H](N)[C@H](O)[C@H](C)O1 | Caco-2 | cell growth or viability, MTT |  | 50 µg/mL, 48 h, serum-free | viability | 12.8%
COc1ccc(NC(=O)c2c(Nc3ccccc3)sc(C(=O)NN=Cc3ccc(Br)cc3)c2NC(C)=O)cc1 | HCT-116 | cell growth or viability, SRB |  | 0.1 µM, 48 h | viability | 85.1%
Cc1ccc(C(CS(=O)(=O)c2ccccc2)=NNC2=NC(=O)C(=NNc3ccc([N+](=O)[O-])cc3)S2)cc1 | SK-MEL-23 | cell growth or viability, MTT |  | 100 µM, 48 h | viability | 40.9%
COc1ccc(NC(=O)c2c(Nc3ccccc3)sc(C#N)c2NC(=O)CNc2ccccc2)cc1 | HCT-116 | cell growth or viability, SRB |  | 10 nM, 48 h | viability | 92.6%
Cc1c(Cc2ccccc2)c(=O)oc2c(C)c(OCC(=O)NN=Cc3ccc(Cl)cc3)ccc12 | MDA-MB-231 | cell growth or viability, MTT |  | 500 µg/mL | viability | 19.4%
